{"data": "Published values of several laboratories", "note": "Parts stem from different laboratories: compare values within a part only. Positions count from the first letter of the parent shown."}
{"data": "Study 1", "target": "RNA binding protein fox-1 homolog 2, RRM domain, GST-SBP tag (RBFOX2, Homo sapiens, UniProt O43251-10, residues 100-194)", "technique": "RNA Bind-n-Seq", "molecule type": "RNA", "medium": "in vitro", "concentration": "365 nM", "setting": "natural RNA segment, single round, ends assumed", "baseline": "no-protein control", "reading": "higher = stronger binding", "constant ends, left off below": "GGGAGUUCUACAGUCCGACGAUC … UGGAAUUCUCGGGUGCCAA", "Residues (chain)": "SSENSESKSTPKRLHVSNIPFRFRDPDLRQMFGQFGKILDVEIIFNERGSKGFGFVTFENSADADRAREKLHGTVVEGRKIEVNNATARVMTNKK"}
{"Oligonucleotide": "UGCCCAGAGAAAGCACUGCUUCUGUAUGUCUCUUGUGGUAUUGGAACAAUAAACCCGUACAACCUGCAGUUGUGGUCUCAGUCAUCUGUGGCUGCCUCGCUGGUGUGGGA", "RBNS enrichment (R)": 0.363}
{"Oligonucleotide": "AAAAGUUUGCUUCUUUUUAUUGAUGGUUCCAAAGAAACAAACCAAAUCUACCAGCUCUUGGAUGAAGAUAGAACAGUGCUUUUCCAGAGUGGGAAGGAAGGGGUUGAGAC", "RBNS enrichment (R)": 0.919}
{"Oligonucleotide": "AAAAACAUUUGUUCAACACAAACUAGAAUCACACCUUCUCACUAGAUAUCACCAAGGGAAUGUGGUUUUAAAAAUAAAAAGAAAACAAUAUAACGUAUCAUGGCAACCAG", "RBNS enrichment (R)": 0.364}
{"Oligonucleotide": "AAAGGGUCCCUACGUUUUACAUUGAUUAAUGAAUUAUCACCCAGACAUGUGCAGAUGAAAUGUCAAUAUAAGAAAAAUCAAGGUAUUUGGGAAACAUGGGCAUAAUCAGG", "RBNS enrichment (R)": 0.822}
{"Oligonucleotide": "UUUUUAUGUACAUCAUUAAUCUUCUGACAAGAAGCUGAAGUAGCACCACAGUCCAUAAUAUAUCAGGAUCUGGCAAGCUUAAGGAACCCAGCUCUUAGAAAUUUCUCUUC", "RBNS enrichment (R)": 0.364}
{"Oligonucleotide": "CCAAUGGCUCAUCUCUAGGGUAAUUUUAUGUCUGAAAGUGUAUGCAGUUGGGUCAGAGCAUGACCUUUAAGAUAGCCUCUCUCAGCUAACAUAUUUAUGAAGAUGAGGCC", "RBNS enrichment (R)": 0.512}
{"Oligonucleotide": "UUUUCUGUGUGUGUCCUUGUUGCUUUUGCCAGAAAAAGUGGAUUUGACAUGCGUGCCCCGAUGCCACCAUAGCCCCUAGGCCAACAAUGUCAUGGUCUAAACACCAAAAA", "RBNS enrichment (R)": 0.576}
{"Oligonucleotide": "UUCACCGUGCGUGGACACUGCUAGGCCGCCUGGGGUCCCCUGCCUCCUGCCUGUCGCUGCCGUGGUCCCUGACUGCGAAAUAGGCCCGCGGGGCUCUCCCUCCUCCUGCC", "RBNS enrichment (R)": 0.287}
{"Oligonucleotide": "UCCAAAGAGGAAUGAGGCCCAGGCCUUGGCUAUACGUACUUCCUGCCCCUGGCCAUCCUUGUUGGAGGCUUCUGGGUGGAACACUGGGUCUAGAACCUUCUUCCGUGGCU", "RBNS enrichment (R)": 0.382}
{"Oligonucleotide": "UGGUCACAGCAUGGAGGCCUUGAGAGCCUGGCCAGGUGGCCCUCCAUGUGAGGUUGUGGUCACAGCAUGGGGGCCUUGAGAGCCUGGCCAGGUGGCCCUCCACGUGAGGU", "RBNS enrichment (R)": 0.924}
{"Oligonucleotide": "ACUGUAUAUUUGUACUUUUGUGAGAUCCUUUUUGCUGUUUUACCAUUUUAAGUCUCUGUACUUGGCUACACACAGAUUGUAUUUUUAUUGUUAAUGCUCUUCUUAUGGAU", "RBNS enrichment (R)": 2.1}
{"Oligonucleotide": "UUUAAAAUAGAAGAUGUCCCACUUGCCAUUAAAUAUAGAAGCCAACUUUUUACCUUUUGAAAUAUGGCUACAUUUAAAACAAAAUCUCACAGCUCGGUUUUUCUUAUUUG", "RBNS enrichment (R)": 0.406}
{"data": "Study 2", "target": "RING finger protein unkempt homolog, zinc fingers 1-6, GST-SBP tag (UNK, Homo sapiens, UniProt Q9C0B0, residues 30-357)", "technique": "RNA Bind-n-Seq", "molecule type": "RNA", "medium": "in vitro", "concentration": "not given", "setting": "RNA with constant flanks, ends assumed", "baseline": "input RNA pool", "reading": "higher = stronger binding", "constant ends, left off below": "GGGAGUUCUACAGUCCGACGAUC … CAACAGAGGAUUGAGCAUCA", "UniProt Q9C0B0, sequence (30-357, looked up)": "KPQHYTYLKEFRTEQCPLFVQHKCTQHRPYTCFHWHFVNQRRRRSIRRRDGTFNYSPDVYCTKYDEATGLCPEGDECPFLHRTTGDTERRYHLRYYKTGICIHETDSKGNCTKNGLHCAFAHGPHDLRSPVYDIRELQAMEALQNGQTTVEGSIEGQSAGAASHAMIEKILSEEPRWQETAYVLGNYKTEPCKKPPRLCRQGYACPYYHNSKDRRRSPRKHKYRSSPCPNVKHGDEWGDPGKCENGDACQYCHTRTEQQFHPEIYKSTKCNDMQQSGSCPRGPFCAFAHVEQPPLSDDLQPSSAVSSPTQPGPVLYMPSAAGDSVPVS"}
{"Oligonucleotide": "AUAUGCCUAUGGCUACUGGACACAUACCCAUAUAAUCCCCCUAUCUGUUUUGUUAAGCCUACCCGUUCAAUGACUAUUAAAACAGGAAAGCAUGUUGAUGCAAAUGGGAAGAUAUAUCUU", "bound/input enrichment [ratio]": 0.123}
{"Oligonucleotide": "GAUCUAAAAAUGGGAAUGAAGUUUGUCAGUGAUGAACAUUAUGAUGAAAACGAAGAUGACUCCGUUUCACAUGUAGAUGGUUCCGUAAUUUCCAGGAGGGAGUGGUAUGUUUAGCAACCA", "bound/input enrichment [ratio]": 0.21}
{"Oligonucleotide": "UCUUUCAAGAAUACAUAUCCUAAAGAUGAAGCACAUGUCUCAGAUGAAUUCUCCAAAAGCCGGUCCAGUGUAUCUAAGGUGCCCUUAUUGCUUCCAAAUGUUUCUGCUUUGGAAUCUCAA", "bound/input enrichment [ratio]": 0.132}
{"Oligonucleotide": "UCUAAAAGGAAAAAAAAGUAGUGUAUUUUAUAUUUCCAUAUGCUAAUGACAUGUCUGUAAUCCGUCUUCAGUGUUCCAUAAGAAGAGAGUGAUGGUACAAGUAUCCCUAAGUAUCACUUU", "bound/input enrichment [ratio]": 0.609}
{"Oligonucleotide": "ACAGUAGGAAAGGCCAAGGGCAAAUUGUGGCUCUUUGGAAAGAAGCCAAAGGGCCCAGCACCCGAAGAUUUCAGUCAUCUGCCACCAGAACAGAGACGUAAAAAACUACAGCAGCGCAUU", "bound/input enrichment [ratio]": 0.175}
{"data": "Study 3", "target": "Sal-like protein 4, full length isoform A (SALL4, Homo sapiens, UniProt Q9UJQ4, residues 1-1053)", "technique": "universal PBM", "molecule type": "double-stranded DNA, one strand shown", "medium": "in vitro", "concentration": "600 nM", "setting": "8-mer, flanks averaged, mean of replicates", "reading": "higher = stronger binding", "UniProt Q9UJQ4, sequence (whole entry, looked up)": "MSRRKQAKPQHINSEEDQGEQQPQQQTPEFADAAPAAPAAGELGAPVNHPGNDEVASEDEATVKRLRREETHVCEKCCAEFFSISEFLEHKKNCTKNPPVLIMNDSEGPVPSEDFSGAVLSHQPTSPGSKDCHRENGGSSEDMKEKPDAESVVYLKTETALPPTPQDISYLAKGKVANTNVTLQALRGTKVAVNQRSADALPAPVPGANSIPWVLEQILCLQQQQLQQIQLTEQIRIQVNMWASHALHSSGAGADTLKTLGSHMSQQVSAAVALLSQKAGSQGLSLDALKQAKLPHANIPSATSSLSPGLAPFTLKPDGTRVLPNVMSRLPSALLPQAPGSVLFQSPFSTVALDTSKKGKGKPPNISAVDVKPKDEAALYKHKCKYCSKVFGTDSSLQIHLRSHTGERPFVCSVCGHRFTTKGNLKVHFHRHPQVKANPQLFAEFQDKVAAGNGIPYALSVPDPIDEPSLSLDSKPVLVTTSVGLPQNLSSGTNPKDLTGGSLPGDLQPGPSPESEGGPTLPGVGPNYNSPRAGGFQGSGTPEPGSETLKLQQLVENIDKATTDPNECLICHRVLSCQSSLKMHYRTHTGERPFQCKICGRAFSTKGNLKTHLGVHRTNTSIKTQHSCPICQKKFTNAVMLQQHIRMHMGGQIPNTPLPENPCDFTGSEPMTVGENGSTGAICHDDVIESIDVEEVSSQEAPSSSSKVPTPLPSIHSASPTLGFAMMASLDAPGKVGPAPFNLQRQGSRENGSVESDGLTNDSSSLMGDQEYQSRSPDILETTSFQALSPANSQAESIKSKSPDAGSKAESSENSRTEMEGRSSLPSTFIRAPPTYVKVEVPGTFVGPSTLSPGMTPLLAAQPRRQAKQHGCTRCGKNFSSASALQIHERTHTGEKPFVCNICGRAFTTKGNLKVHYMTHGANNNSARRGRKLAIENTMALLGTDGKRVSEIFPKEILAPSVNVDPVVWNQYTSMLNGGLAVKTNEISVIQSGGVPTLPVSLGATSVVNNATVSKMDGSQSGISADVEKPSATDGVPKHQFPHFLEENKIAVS"}
{"Oligonucleotide": "AATGACGA", "E-score": 0.205}
{"Oligonucleotide": "CCGTAGAC", "E-score": -0.118}
{"Oligonucleotide": "CAATGACG", "E-score": -0.00739}
{"Oligonucleotide": "CGCATGCC", "E-score": -0.0858}
{"Oligonucleotide": "ACGTGCAC", "E-score": -0.148}
{"Oligonucleotide": "CGCGGCGA", "E-score": -0.293}
{"Oligonucleotide": "ATGGCGGG", "E-score": -0.131}
{"Oligonucleotide": "CGCAATAA", "E-score": 0.145}
{"Oligonucleotide": "ATTACAAT", "E-score": 0.322}
{"Oligonucleotide": "TACTTACA", "E-score": 0.195}
{"Oligonucleotide": "AACCAAGA", "E-score": 0.144}
{"Oligonucleotide": "ACTCAAAA", "E-score": 0.182}
{"Oligonucleotide": "TTAATTAA", "E-score": 0.361}
{"Oligonucleotide": "CGGCTTAC", "E-score": -0.192}
{"Oligonucleotide": "CAATATCA", "E-score": 0.357}
{"data": "Study 4", "target": "ABI1, truncated, D143A, DHFR fusion (Arabidopsis thaliana)", "technique": "DHFR PCA, deep sequencing", "medium": "yeast", "setting": "methotrexate growth selection, single substitutions", "together with": "(+)-ABA 4.8 µM", "baseline": "wild-type fitted maximum", "reading": "higher = stronger binding", "starting sequence": "PYL1, truncated, DHFR fusion (Arabidopsis thaliana); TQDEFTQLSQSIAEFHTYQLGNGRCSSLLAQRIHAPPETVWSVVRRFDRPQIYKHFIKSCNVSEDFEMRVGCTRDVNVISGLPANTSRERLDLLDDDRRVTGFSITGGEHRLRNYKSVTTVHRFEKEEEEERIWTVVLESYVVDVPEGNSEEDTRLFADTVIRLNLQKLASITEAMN; partner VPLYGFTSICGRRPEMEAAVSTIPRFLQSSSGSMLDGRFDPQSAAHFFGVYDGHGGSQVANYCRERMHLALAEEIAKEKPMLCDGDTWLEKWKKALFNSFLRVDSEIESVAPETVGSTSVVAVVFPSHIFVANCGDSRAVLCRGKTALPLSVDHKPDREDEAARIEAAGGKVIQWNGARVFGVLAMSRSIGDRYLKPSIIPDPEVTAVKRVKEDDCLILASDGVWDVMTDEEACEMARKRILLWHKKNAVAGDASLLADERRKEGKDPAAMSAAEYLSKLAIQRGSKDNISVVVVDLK"}
{"Variant": "N177I", "relative binding score [%]": 70.5}
{"Variant": "L169P", "relative binding score [%]": 10.4}
{"Variant": "C25L", "relative binding score [%]": 23.4}
{"Variant": "A158I", "relative binding score [%]": 109}
{"Variant": "F47A", "relative binding score [%]": -2.13}
{"Variant": "E151R", "relative binding score [%]": 59.5}
{"Variant": "R123F", "relative binding score [%]": 21.2}
{"Variant": "V143F", "relative binding score [%]": 2.22}
{"Variant": "T135W", "relative binding score [%]": -5.99}
{"Variant": "A84Q", "relative binding score [%]": 4.16}
{"Variant": "E174P", "relative binding score [%]": -2.52}
{"Variant": "R98Q", "relative binding score [%]": 52.9}
{"Variant": "Y141H", "relative binding score [%]": 3.5}
{"Variant": "V76L", "relative binding score [%]": 59}
{"Variant": "L164W", "relative binding score [%]": 39.8}
{"Variant": "V118R", "relative binding score [%]": 84.5}
{"Variant": "K126F", "relative binding score [%]": 68.5}
{"note": "Repeated from above (study 1):"}
{"Oligonucleotide": "CCAAUGGCUCAUCUCUAGGGUAAUUUUAUGUCUGAAAGUGUAUGCAGUUGGGUCAGAGCAUGACCUUUAAGAUAGCCUCUCUCAGCUAACAUAUUUAUGAAGAUGAGGCC", "RBNS enrichment (R)": 0.512}
{"Oligonucleotide": "UUUUCUGUGUGUGUCCUUGUUGCUUUUGCCAGAAAAAGUGGAUUUGACAUGCGUGCCCCGAUGCCACCAUAGCCCCUAGGCCAACAAUGUCAUGGUCUAAACACCAAAAA", "RBNS enrichment (R)": 0.576}
{"Oligonucleotide": "UUCACCGUGCGUGGACACUGCUAGGCCGCCUGGGGUCCCCUGCCUCCUGCCUGUCGCUGCCGUGGUCCCUGACUGCGAAAUAGGCCCGCGGGGCUCUCCCUCCUCCUGCC", "RBNS enrichment (R)": 0.287}
{"Oligonucleotide": "UCCAAAGAGGAAUGAGGCCCAGGCCUUGGCUAUACGUACUUCCUGCCCCUGGCCAUCCUUGUUGGAGGCUUCUGGGUGGAACACUGGGUCUAGAACCUUCUUCCGUGGCU", "RBNS enrichment (R)": 0.382}
{"Oligonucleotide": "UGGUCACAGCAUGGAGGCCUUGAGAGCCUGGCCAGGUGGCCCUCCAUGUGAGGUUGUGGUCACAGCAUGGGGGCCUUGAGAGCCUGGCCAGGUGGCCCUCCACGUGAGGU", "RBNS enrichment (R)": 0.924}
{"Oligonucleotide": "ACUGUAUAUUUGUACUUUUGUGAGAUCCUUUUUGCUGUUUUACCAUUUUAAGUCUCUGUACUUGGCUACACACAGAUUGUAUUUUUAUUGUUAAUGCUCUUCUUAUGGAU", "RBNS enrichment (R)": 2.1}
